Results collected from several papers.
Every numbered part comes from another study and shows a few of its results, in no order. Several values in a cell are separate wells, animals, samples, runs or records. ± marks the error that the study gave.
UniProt P0C264, sequence (whole entry, looked up): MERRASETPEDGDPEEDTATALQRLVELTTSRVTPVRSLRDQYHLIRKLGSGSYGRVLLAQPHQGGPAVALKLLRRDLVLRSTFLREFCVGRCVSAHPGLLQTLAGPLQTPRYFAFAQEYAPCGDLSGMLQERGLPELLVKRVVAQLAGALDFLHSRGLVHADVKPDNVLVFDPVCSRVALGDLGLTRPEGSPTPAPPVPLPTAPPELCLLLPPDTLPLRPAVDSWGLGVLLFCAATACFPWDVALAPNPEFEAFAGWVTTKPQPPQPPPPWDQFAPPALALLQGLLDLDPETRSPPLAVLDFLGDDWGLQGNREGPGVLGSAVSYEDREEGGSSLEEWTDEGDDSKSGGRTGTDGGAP
UniProt Q96J92, sequence (whole entry, looked up): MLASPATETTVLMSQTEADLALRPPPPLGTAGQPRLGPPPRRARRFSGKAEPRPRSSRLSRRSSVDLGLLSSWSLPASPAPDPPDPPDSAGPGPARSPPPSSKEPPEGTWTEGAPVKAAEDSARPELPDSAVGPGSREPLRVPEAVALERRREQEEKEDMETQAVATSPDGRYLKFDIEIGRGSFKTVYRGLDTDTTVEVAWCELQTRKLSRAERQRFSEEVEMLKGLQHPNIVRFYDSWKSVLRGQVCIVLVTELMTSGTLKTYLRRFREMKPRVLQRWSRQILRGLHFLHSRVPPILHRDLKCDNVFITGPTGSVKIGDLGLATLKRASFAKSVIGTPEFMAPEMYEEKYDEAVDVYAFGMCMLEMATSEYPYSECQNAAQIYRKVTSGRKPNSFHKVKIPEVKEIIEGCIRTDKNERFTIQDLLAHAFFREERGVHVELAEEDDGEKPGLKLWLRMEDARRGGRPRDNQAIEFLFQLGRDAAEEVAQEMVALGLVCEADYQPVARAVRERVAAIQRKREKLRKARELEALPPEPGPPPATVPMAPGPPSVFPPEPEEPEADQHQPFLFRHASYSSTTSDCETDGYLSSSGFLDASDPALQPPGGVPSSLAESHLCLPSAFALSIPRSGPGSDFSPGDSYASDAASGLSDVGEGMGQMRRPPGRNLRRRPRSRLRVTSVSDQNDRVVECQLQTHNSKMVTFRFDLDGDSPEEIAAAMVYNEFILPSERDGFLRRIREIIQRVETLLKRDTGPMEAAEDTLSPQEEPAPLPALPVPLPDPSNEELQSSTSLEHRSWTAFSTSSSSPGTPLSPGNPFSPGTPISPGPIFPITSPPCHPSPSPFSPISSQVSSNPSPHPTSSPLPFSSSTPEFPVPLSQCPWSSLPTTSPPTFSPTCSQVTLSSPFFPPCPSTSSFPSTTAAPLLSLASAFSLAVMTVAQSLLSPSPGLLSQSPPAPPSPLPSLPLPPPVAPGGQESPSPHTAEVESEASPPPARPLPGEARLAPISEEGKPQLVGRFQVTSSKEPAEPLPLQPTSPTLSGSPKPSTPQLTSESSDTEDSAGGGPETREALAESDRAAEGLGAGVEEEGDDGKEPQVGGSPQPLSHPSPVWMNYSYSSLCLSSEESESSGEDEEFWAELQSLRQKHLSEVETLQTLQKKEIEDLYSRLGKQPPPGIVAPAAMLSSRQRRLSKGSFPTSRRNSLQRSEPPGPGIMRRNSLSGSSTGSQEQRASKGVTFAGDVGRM
UniProt P23443, sequence (whole entry, looked up): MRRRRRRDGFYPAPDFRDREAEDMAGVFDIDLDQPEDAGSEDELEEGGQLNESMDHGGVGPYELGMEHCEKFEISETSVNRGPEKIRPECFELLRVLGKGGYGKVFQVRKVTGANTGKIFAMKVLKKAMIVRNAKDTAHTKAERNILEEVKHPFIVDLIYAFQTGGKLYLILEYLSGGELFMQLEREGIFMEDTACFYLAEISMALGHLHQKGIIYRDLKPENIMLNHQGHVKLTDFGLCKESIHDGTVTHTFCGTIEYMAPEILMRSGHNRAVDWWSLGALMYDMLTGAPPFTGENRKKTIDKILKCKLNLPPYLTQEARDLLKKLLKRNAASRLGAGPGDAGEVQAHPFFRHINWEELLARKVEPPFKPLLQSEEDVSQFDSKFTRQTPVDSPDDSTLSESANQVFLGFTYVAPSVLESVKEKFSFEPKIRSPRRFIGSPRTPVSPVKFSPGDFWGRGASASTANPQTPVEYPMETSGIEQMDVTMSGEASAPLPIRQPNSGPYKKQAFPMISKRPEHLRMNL
UniProt Q8TDX7, sequence (whole entry, looked up): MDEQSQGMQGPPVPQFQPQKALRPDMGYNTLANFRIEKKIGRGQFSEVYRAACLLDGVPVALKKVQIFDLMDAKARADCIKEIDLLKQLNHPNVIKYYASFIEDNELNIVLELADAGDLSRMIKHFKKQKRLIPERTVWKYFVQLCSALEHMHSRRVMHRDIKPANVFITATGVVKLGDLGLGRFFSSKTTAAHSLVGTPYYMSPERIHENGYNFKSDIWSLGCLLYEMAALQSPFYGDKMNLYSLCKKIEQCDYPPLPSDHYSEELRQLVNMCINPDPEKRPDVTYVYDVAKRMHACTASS

Study 1
Structure (SMILES): C[C@@H]1CN(c2ccc(-c3cc(C(=O)NCCOCCOCCOCCOCCNC(=O)Cn4cc(-c5[nH]cc(C(=O)N[C@@H](CC(N)=O)c6ccc(F)c(Cl)c6)c5-c5ccc(Cl)cc5F)cn4)ccc3F)cc2NC(=O)c2c[nH]c(=O)cc2C(F)(F)F)C[C@H](C)N1C
Read-out: thermal unfolding
Technique: differential scanning fluorimetry
Tested at: 5.5 µM
Direction: higher = more unfolded
Quantity: SYPRO Orange fluorescence
WDR5: WD repeat-containing protein 5 (WDR5, Homo sapiens, UniProt P61964)
DCAF1: DDB1- and CUL4-associated factor 1 (DCAF1, Homo sapiens, UniProt Q9Y4B6)
UniProt Q9Y4B6, sequence (whole entry, looked up): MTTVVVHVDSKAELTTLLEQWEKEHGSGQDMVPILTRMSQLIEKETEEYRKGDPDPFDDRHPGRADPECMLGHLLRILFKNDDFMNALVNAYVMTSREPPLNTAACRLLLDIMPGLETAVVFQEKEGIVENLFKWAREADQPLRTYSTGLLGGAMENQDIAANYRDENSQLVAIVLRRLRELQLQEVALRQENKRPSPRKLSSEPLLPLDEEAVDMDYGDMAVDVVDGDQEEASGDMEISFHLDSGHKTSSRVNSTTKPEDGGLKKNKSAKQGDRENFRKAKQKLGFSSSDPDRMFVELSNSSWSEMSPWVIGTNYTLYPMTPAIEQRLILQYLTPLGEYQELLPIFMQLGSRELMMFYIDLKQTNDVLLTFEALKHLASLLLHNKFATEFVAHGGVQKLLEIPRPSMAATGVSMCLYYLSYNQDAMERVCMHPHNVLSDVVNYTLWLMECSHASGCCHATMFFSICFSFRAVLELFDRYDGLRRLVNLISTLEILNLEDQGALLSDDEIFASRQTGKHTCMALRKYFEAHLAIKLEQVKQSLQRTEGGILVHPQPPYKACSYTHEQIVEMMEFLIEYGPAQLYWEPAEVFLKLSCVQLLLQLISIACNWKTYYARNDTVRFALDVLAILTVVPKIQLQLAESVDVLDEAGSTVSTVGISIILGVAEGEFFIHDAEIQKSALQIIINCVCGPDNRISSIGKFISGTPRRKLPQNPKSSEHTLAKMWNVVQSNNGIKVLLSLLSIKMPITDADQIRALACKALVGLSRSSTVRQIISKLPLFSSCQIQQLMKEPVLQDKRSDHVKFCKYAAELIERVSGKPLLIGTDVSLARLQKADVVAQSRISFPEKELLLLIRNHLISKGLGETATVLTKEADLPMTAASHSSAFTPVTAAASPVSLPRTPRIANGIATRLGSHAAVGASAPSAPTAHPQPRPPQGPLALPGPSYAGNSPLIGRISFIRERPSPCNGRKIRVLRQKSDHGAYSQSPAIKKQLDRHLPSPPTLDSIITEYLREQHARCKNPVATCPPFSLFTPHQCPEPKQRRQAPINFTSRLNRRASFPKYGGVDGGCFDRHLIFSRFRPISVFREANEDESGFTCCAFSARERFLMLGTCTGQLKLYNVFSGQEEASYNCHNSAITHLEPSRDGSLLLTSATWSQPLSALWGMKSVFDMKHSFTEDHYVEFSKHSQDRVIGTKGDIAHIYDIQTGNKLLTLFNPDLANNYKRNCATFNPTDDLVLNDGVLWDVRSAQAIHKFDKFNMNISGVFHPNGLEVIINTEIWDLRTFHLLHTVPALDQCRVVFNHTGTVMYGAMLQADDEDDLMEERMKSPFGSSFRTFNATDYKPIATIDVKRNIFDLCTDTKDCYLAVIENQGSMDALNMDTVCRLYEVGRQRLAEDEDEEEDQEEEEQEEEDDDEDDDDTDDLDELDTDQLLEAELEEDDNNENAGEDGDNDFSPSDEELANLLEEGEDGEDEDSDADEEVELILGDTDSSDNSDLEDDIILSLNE
WDR5; 50.8 °C: 14400 a.u.
DCAF1; 30.8 °C: 8320 a.u.
WDR5; 48.2 °C: 14400 a.u.
WDR5; 48.8 °C: 14500 a.u.
DCAF1; 66.21 °C: 56700 a.u.
DCAF1; 51.4 °C: 15300 a.u.
DCAF1; 39.8 °C: 10200 a.u.

Study 2
Compound: Cc1ncsc1-c1ccc(C(CO)NC(=O)C2CC(O)CN2C(=O)C(C(C)C)n2cc(-c3ccc(COc4c(-c5c(C)c(F)cc6[nH]ncc56)c(C5CC5)cc5c(N6CC7CC6CN7)nc(OC6CCOCC6)nc45)cc3)nn2)cc1 (stereo not drawn)
Technique: qRT-PCR
Host: mouse, PK-59 xenograft
Medium: tumour
Notes: unit not given
Quantity: mRNA level
item: DUSP4; 10 mg/kg, 72 h; baseline: vehicle: 0.249 and 0.317 and 0.267
item: DUSP6; 10 mg/kg, 24 h; baseline: vehicle: 0.0808 and 0.066 and 0.081 and 0.0656 and 0.0933 and 0.093
item: DUSP4; intravenous, 10 mg/kg, 48 h; baseline: vehicle, same time point: 0.132 and 0.0922 and 0.127
item: DUSP4; 10 mg/kg, 144 h; baseline: vehicle: 0.467 and 0.88 and 0.602
item: FOSL1; 30 mg/kg, 144 h; baseline: vehicle: 0.247 and 0.194
item: DUSP6; 10 mg/kg, 72 h; baseline: vehicle: 0.255 and 0.231

Study 3
Target: Membrane-associated tyrosine- and threonine-specific cdc2-inhibitory kinase (PKMYT1, Homo sapiens, UniProt Q99640)
UniProt Q99640, sequence (whole entry, looked up): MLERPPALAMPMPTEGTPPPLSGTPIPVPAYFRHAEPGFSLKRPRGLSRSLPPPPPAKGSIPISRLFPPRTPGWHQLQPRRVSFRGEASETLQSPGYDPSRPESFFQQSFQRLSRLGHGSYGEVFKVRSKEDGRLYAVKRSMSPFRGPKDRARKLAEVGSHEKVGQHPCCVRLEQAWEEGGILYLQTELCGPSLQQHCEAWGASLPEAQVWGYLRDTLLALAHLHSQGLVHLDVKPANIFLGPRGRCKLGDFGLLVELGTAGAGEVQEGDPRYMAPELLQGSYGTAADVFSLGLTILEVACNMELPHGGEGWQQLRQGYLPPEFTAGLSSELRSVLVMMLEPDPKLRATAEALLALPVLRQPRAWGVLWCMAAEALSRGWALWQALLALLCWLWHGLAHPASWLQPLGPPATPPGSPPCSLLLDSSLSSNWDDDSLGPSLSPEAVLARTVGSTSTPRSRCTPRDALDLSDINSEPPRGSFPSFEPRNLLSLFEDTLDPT
Read-out: cell-free assay
Technique: TR-FRET
Quantity: IC50
Cc1ccc(O)c(C)c1-c1cnc2[nH]c(-c3cnc(N4CCC(CN5CCN(c6ccc(NC7CCC(=O)NC7=O)cc6F)CC5)CC4)nc3)cc2c1C#N (stereo not drawn): 4.4 nM
Cc1ccc(O)c(C)c1-c1cnc2[nH]c(-c3cnc(N4CCC(CN5CCN(c6ccc7c(c6)CN(C6CCC(=O)NC6=O)C7=O)CC5)CC4)nc3)cc2c1C#N (stereo not drawn): 2.9 nM
Cc1ccc(O)c(C)c1-c1cnc2[nH]c(-c3cnc(N4CCC(CN5CCC(c6ccc(NC7CCC(=O)NC7=O)cc6F)CC5)CC4)nc3)cc2c1C#N (stereo not drawn): 5.2 nM
Cc1ccc(O)c(C)c1-c1cnc2[nH]c(-c3cnc(N4CCC(CN5CCN(c6ccc7c(c6F)CN(C6CCC(=O)NC6=O)C7=O)CC5)CC4)nc3)cc2c1C#N (stereo not drawn): 4 nM
Cc1ccc(O)c(C)c1-c1cnc2[nH]c(-c3cnc(N4CC5(CC(CN6CCN(c7ccc(NC8CCC(=O)NC8=O)cc7F)CC6)C5)C4)nc3)cc2c1C#N (stereo not drawn): 2.6 nM

Study 4
SMILES: CCN1/C(=C/C=C2\CCCC(/C=C/C3=[N+](CC)c4ccccc4C3(C)C)=C2NCCCCCCCCN2CCC(Nc3nc4ccccc4n3Cc3ccc(F)cc3)CC2)C(C)(C)c2ccccc21
Cell line: U-87 MG
Tested at: concentration not given
Baseline: DMSO
Quantity: log2 fold change
item: ABI3 mRNA: -2.74
item: HOXB3 mRNA: -1.07
item: AXL mRNA: -1.27
item: PLXND1 mRNA: -1.29
item: JAG1 mRNA: -0.911
item: ALAS1 mRNA: 1.09

Study 5
SMILES: CC(C)(C)c1ccc(Oc2ccc3c(c2)OC(O)(C(=O)O)C(=O)N3Cc2ccccc2)cc1 (stereo not drawn)
Organism: Arabidopsis thaliana
Strain: Col-0
Quantity: hypocotyl length
50 µg/mL, seed germination, repetition mean: 1.64 cm
6.25 µg/mL, seed germination, single repetition: 2.02 cm and 2.12 cm and 1.98 cm and 2.04 cm
50 µg/mL, seed germination, single repetition: 1.63 cm and 1.62 cm and 1.68 cm

Study 6
SMILES: COc1cc(-c2nc3ccc(C(=O)NCCCN(C)C)cc3n2C2CCC2)cc(OC)c1OC
Read-out: binding
Technique: competition with immobilised ligand
Tested at: 1 µM
Quantity: remaining binding
MAP3K3 (Homo sapiens, UniProt Q99759): 100%
MAP3K9 (Homo sapiens, UniProt P80192): 99%
PAK2 (Homo sapiens, UniProt Q13177): 93%
TEK (Homo sapiens, UniProt Q02763): 89%
RPS6KB1 (Homo sapiens, UniProt P23443): 47%
TSSK1B (Homo sapiens, UniProt Q9BXA7): 79%
NEK7 (Homo sapiens, UniProt Q8TDX7): 78%
WNK4 (Homo sapiens, UniProt Q96J92): 94%
Tyrosine-protein kinase ABL1, phosphorylated (ABL1, Homo sapiens, UniProt P00519, H396P): 69%
EPHA6 (Homo sapiens, UniProt Q9UF33): 96%
HUNK (Homo sapiens, UniProt P57058): 97%
RIPK2 (Homo sapiens, UniProt O43353): 77%
STK17B (Homo sapiens, UniProt O94768): 92%
KIT (Homo sapiens, UniProt P10721): 97%

Study 7
Compound: CC[C@@]1(c2cccc(-c3c(F)cncc3OC)c2)C2=C(Nc3n[nH]cc31)[C@H](F)C(C)(C)CC2=O (single isomer, unassigned)
Tested at: 1 µM
Quantity: remaining binding
MAPK14 (Homo sapiens, UniProt Q16539); kinase binding, KINOMEscan; baseline: DMSO control: 71%
PTK2B (Homo sapiens, UniProt Q14289); binding, competition with immobilised ligand: 74%
CAMKK1 (Homo sapiens, UniProt Q8N5S9); binding, competition with immobilised ligand: 93%
LIM domain kinase 2 (LIMK2, Homo sapiens, UniProt P53671); binding, competition with immobilised ligand: 100%
MAP3K5 (Homo sapiens, UniProt Q99683); binding, competition with immobilised ligand: 68%
BRAF (Homo sapiens, UniProt P15056, V600E); binding, competition with immobilised ligand: 84%
NEK9 (Homo sapiens, UniProt Q8TD19); kinase binding, KINOMEscan; baseline: DMSO control: 93%
PIK3CA (Homo sapiens, UniProt P42336, I800L); binding, competition with immobilised ligand: 61%
SBK3 (Homo sapiens, UniProt P0C264); kinase binding, KINOMEscan; baseline: DMSO control: 100%
NUAK2 (Homo sapiens, UniProt Q9H093); kinase binding, KINOMEscan; baseline: DMSO control: 66%
GRK2 (Homo sapiens, UniProt P25098); binding, competition with immobilised ligand: 54%
PTK6 (Homo sapiens, UniProt Q13882); kinase binding, KINOMEscan; baseline: DMSO control: 100%

Other studies, line by line
Target: Sodium-dependent neutral amino acid transporter B(0)AT1 (SLC6A19, Homo sapiens, UniProt Q695T7)
UniProt Q695T7, sequence (whole entry, looked up): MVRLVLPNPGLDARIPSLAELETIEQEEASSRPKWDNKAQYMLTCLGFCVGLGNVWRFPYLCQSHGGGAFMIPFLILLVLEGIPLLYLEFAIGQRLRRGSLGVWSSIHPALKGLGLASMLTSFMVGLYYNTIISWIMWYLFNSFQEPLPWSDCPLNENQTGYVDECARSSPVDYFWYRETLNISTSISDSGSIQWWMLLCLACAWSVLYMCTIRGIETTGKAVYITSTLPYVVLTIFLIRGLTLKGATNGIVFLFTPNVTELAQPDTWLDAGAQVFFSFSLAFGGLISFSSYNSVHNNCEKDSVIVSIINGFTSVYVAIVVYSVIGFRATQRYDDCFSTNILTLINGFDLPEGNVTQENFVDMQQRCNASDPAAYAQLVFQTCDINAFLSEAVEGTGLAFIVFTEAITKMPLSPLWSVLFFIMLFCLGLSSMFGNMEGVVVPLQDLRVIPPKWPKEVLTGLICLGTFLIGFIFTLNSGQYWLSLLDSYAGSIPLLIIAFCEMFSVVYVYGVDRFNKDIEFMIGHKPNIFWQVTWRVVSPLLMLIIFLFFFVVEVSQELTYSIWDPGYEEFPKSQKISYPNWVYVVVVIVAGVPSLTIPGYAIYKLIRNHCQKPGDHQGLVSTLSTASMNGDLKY
Action: inhibitor
Technique: FLIPR membrane potential
Cells: CHO-BC cells
Cc1cc(OCC(=O)NC(C)C)ccc1I
remaining transport activity (1 µM, unit not given; baseline: no inhibitor): 0.468

Cc1cc(OCC(=O)OC(C)C)cc(C)c1Cl
normalised transport activity (30 µM): 1.01

Cc1cc(OCC(=O)NC(C)C)cc(C)c1Br
activity (30 µM, together with: L-leucine 1.5 mM; baseline: cinromide): 11 ± 2%

CC(C)NC(=O)COc1ccc2ccccc2c1
remaining transport activity (0.003 µM, unit not given; baseline: uninhibited cells): 1.06

Repeated from above (study 1):
DCAF1; 66.21 °C: 56700 a.u.
DCAF1; 51.4 °C: 15300 a.u.
DCAF1; 39.8 °C: 10200 a.u.
